# Measured values gathered from unrelated publications.
# A part holds a random share of what one study measured.

# Series 1 — technique: protein binding microarray; molecule type: double-stranded DNA, one strand shown; sample: in vitro; concentration: not given; baseline: not given; reading: higher = stronger binding
# Target: Histone acetyltransferase KAT6A, winged helix 2, GST fusion (KAT6A, Homo sapiens, UniProt Q92794, residues 85-181)
# Notes: 8-mer, flanks averaged, mean of 2 arrays, mostly near background
# Target sequence (chain): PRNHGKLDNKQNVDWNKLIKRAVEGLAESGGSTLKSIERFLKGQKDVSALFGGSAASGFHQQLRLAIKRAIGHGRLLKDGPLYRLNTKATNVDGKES
Strand,E-score
ATTTGGAG,0.102
CACATAAC,-0.0439
CCTGGTAG,-0.0267
AGAGGGGC,0.177
ACAAGGCA,-0.0744
ACTAGGGC,-0.0921
GGTCATGA,-0.0173
GGCCTAGA,-0.201
AAACTCCT,-0.113
CCGAGTGA,0.144
GAGCCAGC,0.0675
ATCGTACA,-0.138
AACAATGG,-0.0478
ACAGATTG,-0.103
AGTCTCTC,-0.172
CCTCTCAC,0.104
GCCTATCC,-0.161
AAGCCGTG,0.0445
AATCCGTG,-0.0459
GCGATCGC,0.206
CCTACCTA,-0.18
GGGGGTCA,-0.0322
CTCCACTC,-0.0891
CCGAATGC,0.084
CGAGTAGA,-0.0385

# Series 2 — technique: RNA Bind-n-Seq; molecule type: RNA; sample: in vitro; concentration: not given; baseline: input RNA pool; reading: higher = stronger binding
# Target: RING finger protein unkempt homolog, zinc fingers 1-6, GST-SBP tag (UNK, Homo sapiens, UniProt Q9C0B0, residues 30-357)
# Sequence of UniProt Q9C0B0 (30-357, looked up): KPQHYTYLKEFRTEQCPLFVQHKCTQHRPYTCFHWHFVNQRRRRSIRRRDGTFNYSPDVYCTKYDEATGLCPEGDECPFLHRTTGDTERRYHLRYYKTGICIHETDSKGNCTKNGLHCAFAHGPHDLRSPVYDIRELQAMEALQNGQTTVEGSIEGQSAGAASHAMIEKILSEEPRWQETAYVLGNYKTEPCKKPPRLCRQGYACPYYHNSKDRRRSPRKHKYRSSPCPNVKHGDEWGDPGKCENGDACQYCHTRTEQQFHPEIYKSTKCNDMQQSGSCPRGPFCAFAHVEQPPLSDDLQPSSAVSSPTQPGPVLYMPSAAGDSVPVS
# Notes: RNA with constant flanks, human and mouse sites, ends assumed
# Shared flanks, not repeated: GGGAGUUCUACAGUCCGACGAUC … CAACAGAGGAUUGAGCAUCA
Strand,bound/input enrichment [ratio]
AGCCGAGGAGGCCCCGCGCAGUGCUGCCAACGCCCCGGCGGAGAAGCUGAGGACAAGAUCUAAUUUGAAAUAUUAAAAGUGGAUACAAAACUGUUUCCGAAAUGCAGACAAUUAAGUGUG,0.188
UGAAUUUUGUAUAGUACUAGGUUAGAACAUUGCUUAAUCCUUUUAAAAAAAAUGCAUUUACGUAAACACGAAUACUGAAAUUGUUGGAUUUUUUAACUAUAUCUGACAUAAUUUUAUUCA,5.36
ACUCAGAAGCCAGUUCAUCAGCUCUUUGAUUACAUUUGUGGUGUAAGCACAGGUGCCAUAUUAGCUUUCAUGUUGGGGUUGUUUCAUAUGCCCUUGGAUGAAUGUGAGGAACUUUAUCGA,0.161
GGGGGAGGGGGAGAAGAUGCUCAUGGUCAGAGAGAUGUGGCGCUGAGAAAUUGGAAACGGUGAUGAAAUGUUGUUGGAGUUAAAGUGAAAUGAGUAGUUUUAAACAGAUUUUCCAAGUUU,1.38
GAAAAGUACCUUAUUGAUAGUGGAAUUAUAUAUUUUUACUCUAUGUUUCUCUACAUGUUUUUUUCUUUCCGUUGCUGAAAAAUAUUUGAAACUUGUGGUCUCUGAAGCUCGGUGGCACCU,0.403
UGAAGGUUCCUCUACACUUCUUGGAUUUUGGAACCAUCAAAGAAAUCCAAACUGAGAGGUCUGGACUGGAUGUUCUGUGUAACUUCAAUGCUUUGUGCUAAGUCAAGAGGAACAAAUAUG,0.148
GAAUCAACCAAUGAACAAUUACAGAUACAUUAUAAGGUAUGCUAUGCACGUGUUCUUGAUUAUAGAAGAAAAUUCAUUGAAGCUGCACAAAGGUACAAUGAGCUCUCUUACAAGACAAUA,0.451
GGGGAGAAACCUUACGAGUGUGUGCAGUGUGGGAAAUCCUACAGUCAGAGCUCAAACCUCUUCAGACAUCAGAGACGACACAAUGCAGAAAAACUUUUGAAUGUUGUGAAGGUUUAAGAA,0.243
UCGGUGGGAAGCAAUGGGCUUCUGGACUUUGAUUCAGAAUAUCAGGAGCUCUGGGAUUGGCUGAUUGACAUGGAGUCCCUUGUGAUGGACAGCCACGACCUGAUGAUGUCAGAGGAGCAG,0.149
AAUCCAGUGGAUAUCUUGACCUACGUGGCUUGGAAAAUCAGUGGCUUUCCCAAAAACCGAGUAAUUGGAAGUGGUUGCAAUCUGGAUUCAGCGCGGUUCCGUUACCUGAUGGGAGAGAGG,0.144
CGUCUCCAUGUAACGAUUCUUGACGUGUUUCUCUGAGAGUUGGCUUAUUUUGAUUAUCAAUUCUUUCUCACUGUCCAUUCCUAUUGAUUUAUCCUGCCAUAUCUCUUUGGGUUUGAUGAG,0.277

# Series 3 — technique: universal PBM; molecule type: double-stranded DNA, one strand shown; sample: in vitro; concentration: not given; reading: higher = stronger binding
# Target: Sal-like protein 4, full length isoform B (SALL4, Homo sapiens, UniProt Q9UJQ4-2, residues 1-616)
# Notes: 8-mer, flanks averaged, mean of replicates
Strand,E-score
CCCCCCGA,-0.15
CAATAAAA,0.387
AAACACGT,0.0686
AGTCCGAA,0.00772
ACGCTAGG,-0.0737
CAAATGCA,0.128
GGTTTCTA,0.00516
GAAGTGGC,-0.16
CGTATGCC,-0.182
ATCATCCC,0.147
TGCATCAA,0.102
CAGTTGAC,-0.12
CCAACAAG,-0.171
CTTGTCAA,0.198
ATGTACTC,0.0867
AGGCGAAC,-0.169
GGAAGCGA,-0.109
CGATACGA,-0.0101
AGATGAAT,0.164
GCGTGTAA,0.0113
AATGAAGC,0.0997
GAACATAA,0.243
ACAGCTCC,-0.142
CACTTGCA,0.0192
CCCTCTGC,-0.274

# Series 4 — technique: RNA Bind-n-Seq; molecule type: RNA; sample: in vitro; concentration: 365 nM; baseline: no-protein control; reading: higher = stronger binding
# Target: RNA binding protein fox-1 homolog 2, RRM domain, GST-SBP tag (RBFOX2, Homo sapiens, UniProt O43251-10, residues 100-194)
# Notes: natural RNA segment, single round, ends assumed
# Shared flanks, not repeated: GGGAGUUCUACAGUCCGACGAUC … UGGAAUUCUCGGGUGCCAA
# Target sequence (chain): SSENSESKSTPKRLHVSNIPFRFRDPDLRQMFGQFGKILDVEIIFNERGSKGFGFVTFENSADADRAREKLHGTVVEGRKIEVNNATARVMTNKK
Strand,RBNS enrichment (R)
UUUCAUCUCAACUAUGUUAUACCUGGACAUUUUAGAUGUUUAUCAAAGGUCUUUUAUGGGGAAGAAAGUAAAUGUAUGAAAUAAUAAAUGUGUGACAUUUAUAGGGAAUG,0.509
UUCUAUUAACAUGAUACAAAGGAUGAUGAUUGUAAGUGUUUACUGACUGGCAGCUUUUAUUUCAGUAUUAGCACAGCGUCUUGCCAGUGUUGGAGGCCAUGUAUUAUUUC,2.2
CCAGCCUCUCCACCAGCCCCUCCAGUCAACCCUCAUCGCCGUGCCCCCCCAGAGCUAGAGAGAUGGGGCCCCUGCGUGGCCCGAGGGGCAGAGCUGGGCGUCACUUCGCA,0.786
UUGAACCACCAUAGACCUAGUAAGUGAGCCCAGUGUGUCCUCCCAUGUAAGAGCCAGGUGUUCAGUGGCAUGUGCUUAAAAGUCGCCCCCAACUAAGGUCUGUGUCGCCU,0.918
AGUAUUCUGUCAUCGAAGAGACCAGCUCGGACACAGAUGAAAGCAUCAUCACCUGCUCCACUCUCAAUAUGGCUUUUAUCAGCAUCUUUUCUCUGUAGCUCCAGGGGAAU,0.892
AUUCGUGACUGAGACCAUACGUGGCCUAUAAACCUAGCAUUUGGAGAAAGUUUGCUGACUUUUGUAACAUUGGCUGCCUUUGUGCAGAAGAAAAAAACAUGGUAGGGAAG,0.346
CCAUUGCUCCUUCUGAAGCAUUUCUCAUGUCUAGGUUUUCCUUGGAAGCAUAUUUAGCCAUCUAUGUGGCUUUAUGGCCCACAGACCUUGCCUUUUAGUCCUAUACAAAU,0.313
UUGGGACCACCCGUAUUUCAGUAGGACCUGGGUAGGGAUUGGAAGUACUUGGCAGGGCAGCAGCAAUCUUGCUGUGUUUGAUAUAACAUGCAUCCUUGGGCAGGUUGCCC,0.531
ACUAGCAGCCUGAACAAUGUCACUCAUAAUGGCAACUCAGACUGUUUCCCUUCCCUUUGACUGUGUGGCCUUUCCCACACAGUUACUAACAGAUAUUUCUGAGUGGUGGA,0.219
UUUGGAAAGAUGUUAAGCAUUUAUUUUUAGUUAAAAAUAAAAACUAAUUUCAUACUAUUUAGAUUUUCUUUUUUAUCUUGCACUUAUUGUCCCCUUUUUAGUUUUUUUUG,0.927
GAAGAUAUCUGGGAGAGAAUAUAGAAGACAUCCCAAAGGAAGUGCUGAUGGACUGUGCCCACCUUGUGAAGGCCAAUAGCAUUCAAGGUAAAAAUUGUGACAGUGGAGAA,0.986
UGCUCAGCACAGAGGCCAGCUUGCGGGAGCUCUGCGUCUCAGGCAGGUGGGACCUCUGAGACACUGGUCCCCACAGAGCUGUAAGUGAGAAGAGCAGUUUGUCCACUCUG,0.407

# Excerpt of the above (series 1):
Strand,E-score
AAGCCGTG,0.0445
CCTGGTAG,-0.0267
ACAGATTG,-0.103
AGAGGGGC,0.177
ATTTGGAG,0.102
ATCGTACA,-0.138
GCGATCGC,0.206
GCCTATCC,-0.161
